Experimental data collected from several papers.
A part holds a random share of what one study measured.
Sequence of UniProt Q52WX2 (whole entry, looked up): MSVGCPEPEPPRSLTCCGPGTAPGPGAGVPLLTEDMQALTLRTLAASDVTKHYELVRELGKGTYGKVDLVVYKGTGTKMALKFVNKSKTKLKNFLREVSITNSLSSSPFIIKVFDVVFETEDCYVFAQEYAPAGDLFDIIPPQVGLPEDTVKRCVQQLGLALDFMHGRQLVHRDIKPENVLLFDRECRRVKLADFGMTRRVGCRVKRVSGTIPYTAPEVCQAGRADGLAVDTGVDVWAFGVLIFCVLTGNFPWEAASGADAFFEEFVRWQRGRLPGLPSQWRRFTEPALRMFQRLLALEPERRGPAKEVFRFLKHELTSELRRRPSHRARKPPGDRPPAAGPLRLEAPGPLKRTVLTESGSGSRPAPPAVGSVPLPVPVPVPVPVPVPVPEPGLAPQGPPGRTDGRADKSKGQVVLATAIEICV
Sequence of UniProt O15111 (whole entry, looked up): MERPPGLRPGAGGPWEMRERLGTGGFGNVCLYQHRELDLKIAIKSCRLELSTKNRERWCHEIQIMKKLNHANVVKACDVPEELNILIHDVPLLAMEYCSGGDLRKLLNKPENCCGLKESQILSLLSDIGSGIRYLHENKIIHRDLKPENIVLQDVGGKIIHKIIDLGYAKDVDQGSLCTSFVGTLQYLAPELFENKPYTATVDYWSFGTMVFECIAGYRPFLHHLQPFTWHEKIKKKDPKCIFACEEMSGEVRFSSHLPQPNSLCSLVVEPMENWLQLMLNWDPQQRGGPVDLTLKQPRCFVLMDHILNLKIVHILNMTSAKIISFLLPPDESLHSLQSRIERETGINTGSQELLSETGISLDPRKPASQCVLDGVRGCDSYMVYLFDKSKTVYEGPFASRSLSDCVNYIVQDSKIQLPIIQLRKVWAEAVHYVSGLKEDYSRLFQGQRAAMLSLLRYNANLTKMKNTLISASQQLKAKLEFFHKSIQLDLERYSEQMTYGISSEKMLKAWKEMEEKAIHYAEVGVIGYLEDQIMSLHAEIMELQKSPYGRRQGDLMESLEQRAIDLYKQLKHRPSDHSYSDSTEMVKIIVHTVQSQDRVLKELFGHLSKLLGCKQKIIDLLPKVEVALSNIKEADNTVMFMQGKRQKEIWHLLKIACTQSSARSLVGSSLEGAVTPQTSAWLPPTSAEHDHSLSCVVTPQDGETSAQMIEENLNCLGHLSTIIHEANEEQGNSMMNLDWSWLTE
Sequence of UniProt Q86Y07 (whole entry, looked up): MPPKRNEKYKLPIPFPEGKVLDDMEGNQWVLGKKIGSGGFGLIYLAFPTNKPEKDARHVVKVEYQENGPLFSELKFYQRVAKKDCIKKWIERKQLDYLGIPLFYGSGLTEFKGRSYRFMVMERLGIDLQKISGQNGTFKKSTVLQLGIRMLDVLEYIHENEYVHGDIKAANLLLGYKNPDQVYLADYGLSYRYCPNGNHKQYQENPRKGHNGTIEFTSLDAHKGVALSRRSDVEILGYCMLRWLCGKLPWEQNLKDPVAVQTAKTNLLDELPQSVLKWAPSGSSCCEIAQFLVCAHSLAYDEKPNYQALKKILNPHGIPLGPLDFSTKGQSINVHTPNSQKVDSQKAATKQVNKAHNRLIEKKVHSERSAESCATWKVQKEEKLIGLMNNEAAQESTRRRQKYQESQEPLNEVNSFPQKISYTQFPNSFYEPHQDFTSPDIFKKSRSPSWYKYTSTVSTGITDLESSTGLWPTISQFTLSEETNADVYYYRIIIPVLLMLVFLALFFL
Sequence of UniProt P36896 (whole entry, looked up): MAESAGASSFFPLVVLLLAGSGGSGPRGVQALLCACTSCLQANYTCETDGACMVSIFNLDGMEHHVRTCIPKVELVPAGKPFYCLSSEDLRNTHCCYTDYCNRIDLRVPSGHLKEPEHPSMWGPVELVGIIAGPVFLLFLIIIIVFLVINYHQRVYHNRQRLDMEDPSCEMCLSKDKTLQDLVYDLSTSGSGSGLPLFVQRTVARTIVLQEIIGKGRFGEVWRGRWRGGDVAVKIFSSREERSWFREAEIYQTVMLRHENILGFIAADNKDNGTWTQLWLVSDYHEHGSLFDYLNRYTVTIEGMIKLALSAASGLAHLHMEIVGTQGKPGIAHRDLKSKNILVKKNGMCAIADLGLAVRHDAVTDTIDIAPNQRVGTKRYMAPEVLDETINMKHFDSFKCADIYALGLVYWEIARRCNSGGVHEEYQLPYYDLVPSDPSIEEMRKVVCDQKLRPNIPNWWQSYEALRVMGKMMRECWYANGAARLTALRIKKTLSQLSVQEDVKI
Sequence of UniProt Q9H2K8 (whole entry, looked up): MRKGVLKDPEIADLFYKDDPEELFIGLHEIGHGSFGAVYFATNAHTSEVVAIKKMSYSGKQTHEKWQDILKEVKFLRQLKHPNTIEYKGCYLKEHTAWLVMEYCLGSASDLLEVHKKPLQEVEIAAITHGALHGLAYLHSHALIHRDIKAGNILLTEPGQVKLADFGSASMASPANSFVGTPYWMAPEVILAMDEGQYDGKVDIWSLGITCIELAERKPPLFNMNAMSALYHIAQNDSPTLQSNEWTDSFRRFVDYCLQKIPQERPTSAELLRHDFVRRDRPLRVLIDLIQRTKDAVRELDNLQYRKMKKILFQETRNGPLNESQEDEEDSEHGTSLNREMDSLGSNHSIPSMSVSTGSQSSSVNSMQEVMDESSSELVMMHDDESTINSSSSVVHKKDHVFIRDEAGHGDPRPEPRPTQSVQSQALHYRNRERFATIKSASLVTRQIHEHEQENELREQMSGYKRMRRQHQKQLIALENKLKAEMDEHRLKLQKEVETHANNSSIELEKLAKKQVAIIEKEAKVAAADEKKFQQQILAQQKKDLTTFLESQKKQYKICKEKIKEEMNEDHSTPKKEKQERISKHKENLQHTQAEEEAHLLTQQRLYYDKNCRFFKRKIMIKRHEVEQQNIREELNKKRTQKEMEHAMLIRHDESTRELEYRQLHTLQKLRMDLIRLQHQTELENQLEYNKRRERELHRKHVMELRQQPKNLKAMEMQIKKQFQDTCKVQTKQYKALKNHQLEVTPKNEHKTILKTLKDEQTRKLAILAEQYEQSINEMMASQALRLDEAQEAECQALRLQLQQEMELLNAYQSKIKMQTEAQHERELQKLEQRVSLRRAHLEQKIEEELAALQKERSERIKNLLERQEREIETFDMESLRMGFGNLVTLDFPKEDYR
Sequence of UniProt Q8TDX7 (whole entry, looked up): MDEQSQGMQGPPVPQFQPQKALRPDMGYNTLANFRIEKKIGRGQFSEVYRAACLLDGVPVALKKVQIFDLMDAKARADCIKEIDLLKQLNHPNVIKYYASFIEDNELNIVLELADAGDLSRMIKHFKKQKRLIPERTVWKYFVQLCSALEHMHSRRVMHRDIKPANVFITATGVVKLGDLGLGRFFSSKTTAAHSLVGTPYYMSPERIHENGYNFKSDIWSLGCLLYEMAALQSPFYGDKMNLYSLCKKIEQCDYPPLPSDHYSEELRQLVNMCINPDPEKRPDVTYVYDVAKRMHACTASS

Set 1
Compound: O=C1CCC(N2Cc3c(ccc4c3OCC43CCN(Cc4ccccc4)CC3)C2=O)C(=O)N1 (centres unmarked)
Target: CRBN/Zinc finger protein Helios (Homo sapiens, UniProt Q96SW2+Q9UKS7)
Sequence of UniProt Q9UKS7 (whole entry, looked up): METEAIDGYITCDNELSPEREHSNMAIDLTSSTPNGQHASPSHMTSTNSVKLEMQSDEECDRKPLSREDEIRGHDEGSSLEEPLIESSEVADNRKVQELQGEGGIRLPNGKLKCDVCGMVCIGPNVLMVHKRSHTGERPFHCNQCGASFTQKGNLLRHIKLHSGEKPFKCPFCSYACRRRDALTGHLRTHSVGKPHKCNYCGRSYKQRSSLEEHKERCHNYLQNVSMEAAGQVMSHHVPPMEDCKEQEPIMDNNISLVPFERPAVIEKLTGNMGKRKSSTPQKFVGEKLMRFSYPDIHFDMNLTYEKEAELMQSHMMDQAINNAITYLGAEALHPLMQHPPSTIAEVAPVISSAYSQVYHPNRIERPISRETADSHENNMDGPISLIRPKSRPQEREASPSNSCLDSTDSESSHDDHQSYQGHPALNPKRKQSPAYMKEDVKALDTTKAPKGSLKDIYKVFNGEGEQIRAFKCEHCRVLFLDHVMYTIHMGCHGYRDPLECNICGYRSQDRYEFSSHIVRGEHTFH
Sequence of UniProt Q96SW2 (whole entry, looked up): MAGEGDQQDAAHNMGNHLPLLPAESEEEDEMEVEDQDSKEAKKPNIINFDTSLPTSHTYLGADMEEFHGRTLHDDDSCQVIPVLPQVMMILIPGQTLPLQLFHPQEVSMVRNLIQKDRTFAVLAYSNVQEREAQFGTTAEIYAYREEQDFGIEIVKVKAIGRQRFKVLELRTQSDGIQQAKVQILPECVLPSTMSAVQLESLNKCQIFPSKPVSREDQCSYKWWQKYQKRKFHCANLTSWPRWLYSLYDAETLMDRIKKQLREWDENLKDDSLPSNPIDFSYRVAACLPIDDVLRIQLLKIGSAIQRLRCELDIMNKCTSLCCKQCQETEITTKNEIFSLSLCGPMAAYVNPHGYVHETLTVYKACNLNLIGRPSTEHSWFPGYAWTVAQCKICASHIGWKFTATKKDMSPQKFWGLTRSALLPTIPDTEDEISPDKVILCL
Action: degrader
Method: HiBiT
Cell line: HEK293
Measurement: protein remaining
tested at = 370.37 nM; time = 6 h; value = 58.7%
tested at = 0.5081 nM; value = 115%
tested at = 1111.11 nM; value = 54.3%
tested at = 3333.33 nM; time = 6 h; value = 35.2%
tested at = 3333.33 nM; value = 35.2%
tested at = 10000 nM; time = 6 h; value = 30.4%

Set 2
SMILES: N/C(=N\[N+](=O)[O-])N/N=C\c1ccc(-c2cccc([N+](=O)[O-])c2)o1
Observed: enzyme activity
Action: inhibitor
Tested at: 0.5 µM
Baseline: control
Measurement: remaining activity
target = CAMK2A (Homo sapiens, UniProt Q9UQM7); value = 100%
target = Aurora kinase B (AURKB, Homo sapiens, UniProt Q96GD4); value = 99.1%
target = HASPIN (Homo sapiens, UniProt Q8TF76); value = 89.1%
target = PIM3 (Homo sapiens, UniProt Q86V86); value = 114%
target = STK4 (Homo sapiens, UniProt Q13043); value = 96.5%
target = SYK (Homo sapiens, UniProt P43405); value = 91.8%
target = Cyclin-dependent kinase 6, with cyclin D1 (CDK6, Homo sapiens, UniProt Q00534); value = 100%
target = PDGFRA (Homo sapiens, UniProt P16234); value = 93.2%
target = TTK (Homo sapiens, UniProt P33981); value = 95.9%
target = SRPK2 (Homo sapiens, UniProt P78362); value = 101%

Set 3
Target: Eukaryotic initiation factor 4A-III (Homo sapiens, UniProt P38919)
Sequence of UniProt P38919 (whole entry, looked up): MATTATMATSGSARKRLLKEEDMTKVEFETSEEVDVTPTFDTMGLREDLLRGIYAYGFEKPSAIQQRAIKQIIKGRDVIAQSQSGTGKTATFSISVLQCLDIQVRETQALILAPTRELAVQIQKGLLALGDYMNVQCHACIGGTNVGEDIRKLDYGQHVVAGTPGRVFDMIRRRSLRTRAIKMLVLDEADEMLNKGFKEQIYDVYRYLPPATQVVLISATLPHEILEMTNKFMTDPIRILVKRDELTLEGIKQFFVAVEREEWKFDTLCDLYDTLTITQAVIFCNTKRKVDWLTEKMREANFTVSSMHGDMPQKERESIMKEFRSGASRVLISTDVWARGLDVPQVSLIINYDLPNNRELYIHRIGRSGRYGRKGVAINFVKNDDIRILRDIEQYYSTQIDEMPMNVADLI
Observed: RNA clamping
Method: fluorescence polarization
Tested at: concentration not given
Notes: mean of two replicates
Together with: FAM-labelled poly r(AG)8 RNA
Measurement: fluorescence polarization change
Structure (SMILES) = COC(=O)[C@H]1[C@H](c2ccccc2)[C@@]2(c3ccc(Br)cc3)Oc3cc(OC)cc(OC)c3[C@]1(O)[C@H]2O; value = -0.2 mP
Structure (SMILES) = COC(=O)[C@H]1[C@H](c2ccccc2)[C@]2(c3ccc(OC)cc3)Oc3cc(OC)cc(OC)c3[C@@]23OC(c2ccccc2)=N[C@@]13O; value = 0.4 mP
Structure (SMILES) = CCOC(=O)[C@H]1[C@@H](c2ccccc2)[C@]2(c3ccc(Br)cc3)Nc3cc(OC)cc(OC)c3[C@@]1(O)[C@H]2O; value = 6.4 mP
Structure (SMILES) = COc1ccc([C@@]23Oc4cc(OC)cc(OC)c4[C@@]24NC(C)=N[C@@]4(O)[C@H](C(=O)N(C)C)[C@H]3c2ccccc2)cc1; value = 64.2 mP
Structure (SMILES) = COc1cc(OC)c2c(c1)O[C@@]1(c3ccc(Br)cc3)[C@H](c3ccccc3)C[C@@H](O)[C@@]21O; value = 28.2 mP
Structure (SMILES) = COC(=O)[C@@H]1[C@@H](c2ccccc2)[C@]2(c3ccc(OC)cc3)Oc3cc(OC)cc(OC)c3[C@@]23OC(c2ccc(OC)cc2)=N[C@@]13O; value = 3.7 mP
Structure (SMILES) = COC(=O)[C@H]1C(=O)[C@@]2(O)c3c(OC)cc(OC)cc3O[C@@]2(c2ccc(OC)cc2)[C@@H]1c1ccccc1; value = 28.2 mP
Structure (SMILES) = COc1cc(OC)c2c(c1)O[C@@]1(c3ccc(Br)cc3)[C@H](c3ccccc3)[C@@H](C(=O)N(C)C)[C@@H](O)[C@@]21O; value = 41.2 mP

Set 4
Structure (SMILES): Cn1cncc1[C@@](O)(COc1ccc(C#N)cc1-c1ccc(OC(F)(F)F)cc1)c1ccc(C#N)cc1
Method: competition with immobilised ligand
Tested at: 1 µM
Measurement: remaining binding
target = NEK9 (Homo sapiens, UniProt Q8TD19); observed = cell-free assay; value = 100%
target = Myosin-IIIb (MYO3B, Homo sapiens, UniProt Q8WXR4); observed = binding; value = 55%
target = PIK3C3 (Homo sapiens, UniProt Q8NEB9); observed = cell-free assay; value = 100%
target = EGFR (Homo sapiens, UniProt P00533, T790M); observed = cell-free assay; value = 68%
target = MKNK2 (Homo sapiens, UniProt Q9HBH9); observed = cell-free assay; value = 74%
target = TAOK3 (Homo sapiens, UniProt Q9H2K8); observed = cell-free assay; value = 100%
target = RIOK2 (Homo sapiens, UniProt Q9BVS4); observed = cell-free assay; value = 100%
target = MAPK10 (Homo sapiens, UniProt P53779); observed = cell-free assay; value = 75%
target = ACVR1B (Homo sapiens, UniProt P36896); observed = cell-free assay; value = 100%
target = RIPK4 (Homo sapiens, UniProt P57078); observed = cell-free assay; value = 94%
target = VRK2 (Homo sapiens, UniProt Q86Y07); observed = cell-free assay; value = 95%
target = Ribosomal protein S6 kinase alpha-6, C-terminal kinase domain (RPS6KA6, Homo sapiens, UniProt Q9UK32); observed = cell-free assay; value = 100%
target = MAP3K4 (Homo sapiens, UniProt Q9Y6R4); observed = cell-free assay; value = 80%
target = SBK1 (Homo sapiens, UniProt Q52WX2); observed = cell-free assay; value = 100%
target = STK32C (Homo sapiens, UniProt Q86UX6); observed = cell-free assay; value = 80%
target = NEK7 (Homo sapiens, UniProt Q8TDX7); observed = cell-free assay; value = 99%
target = CHUK (Homo sapiens, UniProt O15111); observed = cell-free assay; value = 100%
